Measurements gathered from unrelated publications.
Compare with care: the assays were run in different laboratories. Several values in a cell are separate wells, animals, samples, runs or records. ± gives the spread as reported.

| Compound | test | system | setting | quantity | value |
| --- | --- | --- | --- | --- | --- |
| O=C(Nc1ccccc1)C1CCN(C(=O)Oc2cccnc2)CC1 |  | healthy women | oral, 20 mg, 7 days | adverse event Nausea | 0% |
| CCCCCOc1ccc(-c2ccc(-c3ccc(C(=O)N[C@H]4C[C@@H](O)[C@@H](OCC[N+](C)(C)C)NC(=O)[C@@H]5[C@@H](O)[C@@H](C)CN5C(=O)[C@H]([C@@H](C)O)NC(=O)[C@H]([C@H](O)[C@@H](O)c5ccc(O)cc5)NC(=O)[C@@H]5C[C@@H](O)CN5C(=O)[C@H]([C@@H](C)O)NC4=O)cc3)cc2)cc1 |  | adult patients in ICU, plasma | intravenous, 400 mg loading, after first dose, mean | AUC(0-168 h) | 760 µg·h/mL |
| Cn1c(=O)c2[nH]cnc2n(C)c1=O |  | human whole blood | 1000 ng/mL, 60 min, 37 °C | blood-to-plasma ratio | 0.86 ± 0.006 |
| CCc1ccc(CC/C=C/c2ccc3c(c2)C(=O)CC3)cc1 |  | Sprague-Dawley rat, male | oral, 450 mg/kg/day, 14 days | Globulin | 19.1 g/L |
| Cn1c(-c2ccc(C(N)=O)cc2F)nnc1C(C)(C)Oc1c(F)cc(Cl)cc1F |  | human | oral, 3 mg, single ascending dose | medical device site reaction TEAE | 16.7% |
| NC(=O)[C@H]1CCN(c2ncnc(N)c2F)C[C@@H]1N1CCC[C@@H](Nc2cc(Cl)cc(C(F)(F)F)c2)C1=O |  | B-cell malignancy patients | oral, 328 mg twice daily, dose | grade ≥3 hyponatraemia | 0% |
| O=C(NCCCNc1nc(Nc2cccc(NC(=O)N3CCCC3)c2)ncc1I)c1cccs1 |  | simulated tear fluid | 24 h, 37 °C | equilibrium solubility | < 1 µg/mL |
| CC(C)CC(=O)OC[C@H]1O[C@@](C#N)(c2ccc3c(N)ncnn23)[C@H](O)[C@@H]1O |  | mouse whole blood | 5 µM, 30 min | remaining compound | 0% |
| Cn1cncc1-c1c(F)cncc1NC(=O)c1c(N)nn2cc(F)cnc12 |  | human patients | oral, 80 mg once daily | grade ≥3 lymphocyte decrease incidence | 0% |
| CC(C)c1nc(N(C)S(C)(=O)=O)nc(-c2ccc(F)cc2)c1/C=C/[C@@H](O)C[C@@H](O)CC(=O)O |  | healthy human subjects | oral, dose not given, study CL-0537 safety set | incidence of Acne | 0% |
| O=C1Nc2cc3[nH]nc(-c4ccncc4)c3cc2CN1Cc1ccccc1 | measured: Dizziness | patients with advanced solid tumours | intravenous, dose not given, all schedules | patients with TEAE | 15% |
| CC(C)n1c(C2CCNCC2)nc2c([N+](=O)[O-])c(Br)c(Br)cc21 | measured: Anemia | AML patients | 125 mg | adverse events any grade | 31% |
| CCCCCCCCCCCCCCCC(=O)N[C@@H](CCC(=O)NCCCC[C@H](NC(=O)[C@H](CC(=O)O)NC(=O)[C@H](CO)NC(=O)[C@@H](NC(=O)[C@H](Cc1ccccc1)NC(=O)[C@@H](NC(=O)CNC(=O)[C@H](CCC(N)=O)NC(=O)[C@H](CO)NC(=O)[C@@H](N)Cc1c[nH]cn1)[C@@H](C)O)[C@@H](C)O)C(=O)N[C@@H](CO)C(=O)N[C@@H](CCC(=O)O)C(=O)N[C@@H](Cc1ccc(O)cc1)C(=O)N[C@@H](CC(C)C)C(=O)N[C@@H](CC(=O)O)C(=O)N[C@@H](CO)C(=O)N[C@@H](CCC(=O)O)C(=O)N[C@@H](CCCNC(=N)N)C(=O)N[C@@H](C)C(=O)N[C@@H](CCCNC(=N)N)C(=O)N[C@@H](CC(=O)O)C(=O)N[C@@H](Cc1ccccc1)C(=O)N[C@H](C(=O)N[C@@H](C)C(=O)N[C@@H](Cc1c[nH]c2ccccc12)C(=O)N[C@@H](CC(C)C)C(=O)N[C@@H](CCC(=O)O)C(=O)N[C@@H](C)C(=O)NCC(=O)NCC(=O)O)C(C)C)C(=O)O |  | human, all renal groups | sc, 100 µg single dose | treatment-related adverse events | 54.1% |
| O.O.O.O.O.O.[Cl-].[Cl-].[Co+2] |  | rat male, urine | oral, 10 mg/kg single, day 1 | cobalt in urine | 9790 µg/L |
| CN1CC[C@@H](c2c(O)cc(O)c3c(=O)cc(-c4ccc(C(F)(F)F)cc4Cl)oc23)[C@@H]1CO | measured: Leukopenia | relapsed B-cell malignancies | oral, 150 mg, grade 3-4, intermittent dosing | patients with adverse event | 0% |
| C#CC[C@H](NC(=O)[C@H](Cc1ccccc1)NC(=O)CCNC(=S)Nc1ccc2c(c1)C(=O)OC21c2ccc(O)cc2Oc2cc(O)ccc21)C(=O)N[C@@H](C)C(=O)N[C@@H](CC(C)C)C(=O)N[C@@H](CC(=O)O)C(=O)N[C@@H](Cc1c[nH]c2ccccc12)C(=O)N[C@@H](CO)C(=O)N[C@@H](Cc1c[nH]c2ccccc12)C(=O)N[C@@H](CC(C)C)C(=O)N[C@@H](CCC(N)=O)C(=O)N[C@H](C(=O)N[C@@H](CCC(=O)O)C(N)=O)[C@@H](C)O | dynamic light scattering | PBS/DMSO | 5000 nM | hydrodynamic diameter | 1250 ± 35 nm |
| O=C(O)CCC(CP(=O)(O)O)C(=O)O (stereo not shown) |  | rat plasma | 4 µg/mL, 4 h, room temperature, bench-top stability | measured concentration | 4.22 ± 0.28 µg/mL |
| CCC[C@@](N)(CO)CCc1ccc(OCCCCCC(C)C)cc1 |  | male hound dog, plasma | oral, 2.5 mg/kg, capsule, geometric mean | AUC(0-t) | 1.59 µM·h |
| C[C@@H]1NC(=O)[C@H](CCCCNC(=O)CO/N=C/C(=O)NCCCC[C@@H]2NC(=O)[C@@H](Cc3ccccc3)NC(=O)[C@H](CC(=O)O)NC(=O)CNC(=O)[C@H](CCCNC(=N)N)NC2=O)NC(=O)CNC(=O)[C@@H]2CCCN2C(=O)[C@H](CCCCNC(=O)CO/N=C/C(=O)NCCCC[C@@H]2NC(=O)[C@@H](Cc3ccccc3)NC(=O)[C@H](CC(=O)O)NC(=O)CNC(=O)[C@H](CCCNC(=N)N)NC2=O)NC(=O)[C@H](CCCCNC(=O)CCNC(=O)CCNC(=O)CCNC(=O)[C@H](CCCCN)NC(=O)[C@H](Cc2ccccc2)NC(=O)CNC(=O)CN2CCCNCCNCCCNCC2)NC(=O)[C@H](CCCCNC(=O)CO/N=C/C(=O)NCCCC[C@@H]2NC(=O)[C@@H](Cc3ccccc3)NC(=O)[C@H](CC(=O)O)NC(=O)CNC(=O)[C@H](CCCNC(=N)N)NC2=O)NC(=O)CNC(=O)[C@@H]2CCCN2C(=O)[C@H](CCCCNC(=O)CO/N=C/C(=O)NCCCC[C@@H]2NC(=O)[C@@H](Cc3ccccc3)NC(=O)[C@H](CC(=O)O)NC(=O)CNC(=O)[C@H](CCCNC(=N)N)NC2=O)NC1=O [copper-64 labelled] | biodistribution after PET | mouse, U-87 MG tumour xenograft, liver | intravenous, 24 h | tissue uptake | 29.2 ± 1.64 %ID/g |

| Compound | test | system | setting | quantity | value |
| --- | --- | --- | --- | --- | --- |
| CC(C)C[C@H](NC(=O)[C@H](CCCCN)NC(=O)OCC1c2ccccc2-c2ccccc21)C(=O)N[C@H](C(=O)N[C@@H](Cc1ccccc1)C(=O)N[C@@H](Cc1ccccc1)C(=O)N[C@@H](CCCCN)C(=O)NCC(=O)N[C@@H](Cc1ccccc1)C(=O)N[C@@H](C)C(=O)N[C@@H](Cc1c[nH]c2ccccc12)C(=O)N[C@@H](CC(N)=O)C(=O)N[C@H](C(=O)N[C@H]1CSSC[C@@H](C(=O)N[C@@H](Cc2c[nH]cn2)C(=O)N[C@@H](CCCNC(=N)N)C(=O)N[C@@H](CCCNC(=N)N)C(=O)N[C@@H](C)C(=O)N[C@@H](CC(N)=O)C(N)=O)NC(=O)[C@H](C(C)C)NC(=O)[C@H](CCCNC(=N)N)NC(=O)[C@H](C(C)C)NC(=O)CNC(=O)[C@H](CC(N)=O)NC(=O)[C@H](CCCNC(=N)N)NC(=O)[C@H](Cc2ccc(O)cc2)NC(=O)[C@H](C(C)C)NC1=O)C(C)C)C(C)C | HPLC | mouse kidney homogenate | 2560 µM, 6.00 h, 37 °C, 50 mg/mL tissue | remaining peptide | 59.5% and 60.4% and 64% |
| Cc1cccc(Cn2nc(C3CC3)c3c(NC(=O)c4cnc5cc(OCCN6CCN(C)CC6)ccn45)cccc32)n1 | measured: Vomiting | human advanced solid tumours | oral, dose not given, all-causality,, all doses | adverse events incidence | 21.1% |
| COc1cc2c(Oc3ccc4[nH]c(C)cc4c3F)ccnc2cc1OCC1(N)CC1 |  | paediatric recurrent refractory sarcoma | 8 mg | grade 1 or 2 blurred vision | 0% |
| CC[C@H](C)CCCCC(=O)N[C@@H](CCN)C(=O)N[C@H](C(=O)N[C@@H](CCN)C(=O)N[C@H]1CCNC(=O)[C@H]([C@@H](C)O)NC(=O)[C@H](CCN)NC(=O)[C@H](CCN)NC(=O)[C@H](CC(C)C)NC(=O)[C@@H](Cc2ccccc2)NC(=O)[C@H](CCN)NC1=O)[C@@H](C)O |  | human, critically ill adults | intravenous, 1.33 to 6.00 mg/kg/d, median at treatment end | change in serum creatinine | 3.14% |
| CC(C)[C@@H]1NC(=O)CNC(=O)[C@H](CC(N)=O)NC(=O)[C@H](CCCNC(=N)N)NC(=O)[C@H](Cc2ccc(O)cc2)NC(=O)[C@H](C(C)C)NC(=O)[C@@H](NC(=O)[C@@H](NC(=O)[C@H](CC(N)=O)NC(=O)[C@H](Cc2c[nH]c3ccccc23)NC(=O)[C@H](C)NC(=O)[C@H](Cc2ccccc2)NC(=O)CN)C(C)C)CSSC[C@@H](C(=O)N[C@@H](Cc2c[nH]cn2)C(=O)N[C@@H](CCCNC(=N)N)C(=O)N[C@@H](CCCNC(=N)N)C(=O)N[C@@H](C)C(=O)N[C@@H](CC(N)=O)C(N)=O)NC(=O)[C@H](C(C)C)NC(=O)[C@H](CCCNC(=N)N)NC1=O | circular dichroism, measured: Parallel | PBS | 80 µM, pH 7.4, with: LTA 1 µM | secondary structure content | 3.09% |
| CO[C@H]1C[C@@H]2CC[C@@H](C)[C@@](O)(O2)C(=O)C(=O)N2CCCC[C@H]2C(=O)O[C@H]([C@H](C)C[C@@H]2CC[C@@H](OC(=O)NCCOCCOCCOCCOCCOCCOCCOCCOCCC(=O)N3CCc4cc(Cn5nc(-c6ccc7oc(N)nc7c6)c6c(N)ncnc65)ccc4C3)[C@H](OC)C2)C[C@@H](O)[C@H](C)/C=C(\C)[C@@H](O)[C@@H](OC)C(=O)[C@H](C)C[C@H](C)/C=C/C=C/C=C/1C | phase 1 dose escalation | advanced solid tumour patients | intravenous, 6 mg weekly, grade ≥3 | deaths due to TRAEs | 0% |
| CN(C(=O)n1cnc(-c2ccc[n+]([O-])c2)c1)C1CCCCC1 |  | Wistar rat, cerebellum | oral, 10 mg/kg/day, 48 h, repeated 5 days | concentration | 17.8 ± 0.8 ng/g |
| N#C[C@@]1(n2ccc(N)nc2=O)O[C@H](CO)[C@@H](O)[C@H]1O |  | CD-1 mouse, brain | intravenous, dose not given, 7 h | concentration | 440 nM and 150 nM and 210 nM |
| CCCCC(=O)c1ccccc1 |  |  | pH 7.4 | logD (chromatographic) | 6.4 |
| CC(C)(O)c1cc(Nc2cc(Oc3cn(C4CC4)nc3C3CCOCC3)ccn2)ccn1 | Nausea | advanced cancer patients, dose escalation | oral, dose not given, 2 weeks on/off, all causality grade ≥3 | treatment-emergent adverse events | 3% |
| O=S(=O)(Nc1ccccc1)c1ccc(NC(=S)Nc2ccccc2)cc1 | measured: ALKP | female mouse, blood | oral, 20 mg/kg daily, 14 days | serum enzyme activity | 212 U/L |
| O=c1ccc2cc3ccoc3cc2o1 |  | rat plasma | 200 ng/mL, 2 weeks, -70 °C, post-preparative stability | accuracy | 98.1% |
| CC(C)(C)c1cc(-n2nc3ccccc3n2)c(O)c(C(C)(C)C)c1 |  | human aged 11-16 years | concentration not given, spray sunscreen, 95th percentile | daily dermal exposure dose | 15.1 ng/kg/day |
| C[C@@H]1OC(=O)NN=C1c1ccc(-c2ccc(F)cc2)c(C(F)(F)F)c1 | phase I trial, measured: Ascites worst grade 2 | human patients | dose not given, all dose groups | patients with adverse event | 20% |
| O=c1nc(NO)ccn1[C@@H]1O[C@H](CO)[C@@H](O)[C@H]1O |  | rat maternal blood dialysate | 25 ng/mL, 6 h, 10 °C, low QC concentration, with: molnupiravir | autosampler stability | 97.5 ± 4.62% |
| O=c1cc(-c2ccc(O)c(O)c2)oc2cc(O)cc(O)c12 |  | Sprague-Dawley rat, male, obese, faeces | oral, 100 mg/kg neohesperidin, 48 h | cumulative faecal excretion | 211.1 ± 1.23 ng |
| C[C@]1(CO)Cc2ncn(-c3ccc(C#N)c(Cl)c3)c2C(=O)O1 |  | human | all doses, European multiple ascending dose | drug-related abnormal skin odour | 2.2% |
| COC[C@@H](CC(C)C)NC(=O)c1ccc(C)c(C)c1 |  | Hsd:ICR (CD-1) mouse, female, bone marrow | oral, 2000 mg/kg, 48 h | PCE to total erythrocyte ratio | 0.539 |
